{"data": "Results collected from several papers", "note": "Parts stem from different laboratories: compare values within a part only. Positions count from the first letter of the parent shown."}
{"data": "Sample 1", "target": "Histone acetyltransferase KAT6A, winged helix 1, GST fusion (KAT6A, Homo sapiens, UniProt Q92794, residues 1-85)", "method": "protein binding microarray", "form": "double-stranded DNA, one strand shown", "sample": "in vitro", "concentration": "not given", "notes": "8-mer, flanks averaged, mean of 2 arrays, mostly near background", "relative to": "not given", "reading": "higher = stronger binding", "Residues (chain)": "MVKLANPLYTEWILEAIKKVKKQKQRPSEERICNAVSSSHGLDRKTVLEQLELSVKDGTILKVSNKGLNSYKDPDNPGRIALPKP"}
{"Sequence": "AGACTTAT", "E-score": -0.21}
{"Sequence": "CTCTTTGA", "E-score": -0.147}
{"Sequence": "GTATGTTA", "E-score": 0.0286}
{"Sequence": "AATAAGTG", "E-score": -0.21}
{"Sequence": "CCGGCCAG", "E-score": 0.264}
{"Sequence": "GCGGGAGC", "E-score": 0.347}
{"Sequence": "AGATTGCC", "E-score": -0.0782}
{"Sequence": "ACTTCGAT", "E-score": -0.0222}
{"Sequence": "AAAATCAC", "E-score": -0.199}
{"Sequence": "TTAGTAAA", "E-score": -0.0946}
{"Sequence": "ACACGGCT", "E-score": 0.288}
{"Sequence": "CTCTCAGC", "E-score": -0.0792}
{"Sequence": "CGAAATCC", "E-score": -0.046}
{"Sequence": "AAAGTCAC", "E-score": -0.0699}
{"Sequence": "ACCGAAGC", "E-score": 0.105}
{"Sequence": "GACCAGTA", "E-score": -0.0145}
{"Sequence": "AGATATCT", "E-score": -0.329}
{"Sequence": "ATACCTCG", "E-score": -0.0822}
{"Sequence": "CGAAATAC", "E-score": -0.0622}
{"Sequence": "ACGTGGGA", "E-score": -0.186}
{"Sequence": "ACTATATG", "E-score": -0.128}
{"Sequence": "AGTCCCTC", "E-score": -0.0948}
{"data": "Sample 2", "target": "Sal-like protein 4, full length isoform A (SALL4, Homo sapiens, UniProt Q9UJQ4, residues 1-1053)", "method": "universal PBM", "form": "double-stranded DNA, one strand shown", "sample": "in vitro", "concentration": "600 nM", "notes": "8-mer, flanks averaged, mean of replicates", "reading": "higher = stronger binding", "UniProt Q9UJQ4, sequence (whole entry, looked up)": "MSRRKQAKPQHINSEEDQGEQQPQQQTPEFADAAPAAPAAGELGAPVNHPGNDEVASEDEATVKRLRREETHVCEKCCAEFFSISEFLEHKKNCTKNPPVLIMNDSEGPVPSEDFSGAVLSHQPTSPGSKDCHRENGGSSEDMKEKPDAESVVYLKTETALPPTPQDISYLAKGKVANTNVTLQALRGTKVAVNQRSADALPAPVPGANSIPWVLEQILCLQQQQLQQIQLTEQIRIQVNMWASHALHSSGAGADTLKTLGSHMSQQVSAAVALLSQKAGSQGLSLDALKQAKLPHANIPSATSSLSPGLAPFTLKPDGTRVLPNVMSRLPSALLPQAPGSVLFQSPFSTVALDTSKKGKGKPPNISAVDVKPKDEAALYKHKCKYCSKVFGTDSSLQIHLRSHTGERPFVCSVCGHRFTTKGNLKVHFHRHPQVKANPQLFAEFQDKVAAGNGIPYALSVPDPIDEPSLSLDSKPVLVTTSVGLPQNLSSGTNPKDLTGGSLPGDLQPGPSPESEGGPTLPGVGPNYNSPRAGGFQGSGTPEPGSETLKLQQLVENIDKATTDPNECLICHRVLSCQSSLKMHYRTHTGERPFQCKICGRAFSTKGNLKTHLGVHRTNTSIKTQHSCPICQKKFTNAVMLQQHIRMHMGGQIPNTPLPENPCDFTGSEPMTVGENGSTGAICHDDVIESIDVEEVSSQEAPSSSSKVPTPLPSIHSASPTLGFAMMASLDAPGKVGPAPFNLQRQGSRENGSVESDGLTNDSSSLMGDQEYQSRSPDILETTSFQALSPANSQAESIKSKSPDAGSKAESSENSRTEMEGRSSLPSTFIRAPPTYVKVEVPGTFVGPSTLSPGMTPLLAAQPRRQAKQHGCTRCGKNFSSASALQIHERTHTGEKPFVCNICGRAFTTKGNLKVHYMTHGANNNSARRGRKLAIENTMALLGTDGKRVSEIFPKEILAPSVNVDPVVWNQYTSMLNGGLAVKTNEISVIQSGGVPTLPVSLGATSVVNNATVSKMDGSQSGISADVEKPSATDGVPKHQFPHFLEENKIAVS"}
{"Sequence": "CTACAGGC", "E-score": -0.111}
{"Sequence": "GAATGGCA", "E-score": 0.00715}
{"Sequence": "CAGTCGTC", "E-score": -0.108}
{"Sequence": "ACTACTGA", "E-score": 0.00674}
{"Sequence": "CGACGTAC", "E-score": -0.0985}
{"Sequence": "ACAGCCGG", "E-score": -0.25}
{"Sequence": "CGCTTGTC", "E-score": -0.164}
{"Sequence": "GAGCCCAA", "E-score": -0.197}
{"Sequence": "CGCGATCA", "E-score": -0.0607}
{"Sequence": "ACAAATTG", "E-score": 0.168}
{"Sequence": "CTATTGCC", "E-score": 0.0291}
{"Sequence": "ATAACACC", "E-score": 0.233}
{"Sequence": "CAAGACTC", "E-score": -0.0725}
{"Sequence": "GGCGGACC", "E-score": -0.393}
{"Sequence": "AAAGAGGG", "E-score": -0.0445}
{"Sequence": "GCTGTTAC", "E-score": -0.047}
{"Sequence": "AAGTGGGG", "E-score": -0.0992}
{"Sequence": "CACGACAC", "E-score": -0.0392}
{"Sequence": "TCGTAAAA", "E-score": 0.301}
{"Sequence": "CTTTCCAA", "E-score": 0.0869}
{"Sequence": "AAATGCAA", "E-score": 0.25}
{"Sequence": "GCTCACGA", "E-score": -0.25}
{"Sequence": "AGGGCCGG", "E-score": -0.439}
{"data": "Sample 3", "Substance": "PhoQ, residues 284 288 289 292 302 303 WVSSAF", "method": "Sort-seq", "measured": "YFP reporter", "sample": "E. coli", "notes": "PhoQ-PhoP variant library", "together with": "10 µM Mg2+", "relative to": "high Mg2+ state", "reading": "higher = stronger signaling"}
{"target": "PhoP, residues 12 14 15 18 19 TQALL (Escherichia coli, UniProt P23836)", "fold induction": 14.6}
{"target": "PhoP, residues 12 14 15 18 19 QYFSL (Escherichia coli, UniProt P23836)", "fold induction": 9.16}
{"target": "PhoP, residues 12 14 15 18 19 NYFRM (Escherichia coli, UniProt P23836)", "fold induction": 7.53}
{"data": "Sample 4", "target": "CCNA1, cyclin fold, Cln2 fusion (human)", "method": "yeast growth competition, sequencing", "sample": "yeast", "notes": "weak parent motif", "relative to": "not given", "reading": "higher = stronger binding", "starting sequence": "GMNC docking peptide (human); KNAKRNLSSEFAN; partner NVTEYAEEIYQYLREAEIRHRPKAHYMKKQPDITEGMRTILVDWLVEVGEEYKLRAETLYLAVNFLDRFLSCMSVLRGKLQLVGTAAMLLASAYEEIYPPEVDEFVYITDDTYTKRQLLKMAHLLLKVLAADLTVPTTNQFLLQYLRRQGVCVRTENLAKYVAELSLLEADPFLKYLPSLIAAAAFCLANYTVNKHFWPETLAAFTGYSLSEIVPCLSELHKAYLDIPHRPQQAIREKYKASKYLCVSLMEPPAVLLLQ"}
{"Variant": "N6T", "normalised enrichment score": -0.000295}
{"Variant": "K4T", "normalised enrichment score": -0.0209}
{"Variant": "N2W", "normalised enrichment score": 0.449}
{"Variant": "S8W", "normalised enrichment score": 0.142}
{"Variant": "S8N", "normalised enrichment score": 0.832}
{"Variant": "S9C", "normalised enrichment score": 0.643}
{"Variant": "N6G", "normalised enrichment score": 0.212}
{"Variant": "A12E", "normalised enrichment score": 0.753}
{"Variant": "S8K", "normalised enrichment score": 0.169}
{"Variant": "F11G", "normalised enrichment score": 0.23}
{"Variant": "R5L", "normalised enrichment score": 0.0415}
{"Variant": "L7P", "normalised enrichment score": -0.0753}
{"Variant": "S8I", "normalised enrichment score": 0.838}
{"Variant": "S9P", "normalised enrichment score": 0.258}
{"Variant": "N2H", "normalised enrichment score": 0.475}
{"Variant": "A3K", "normalised enrichment score": 0.106}
{"Variant": "S8C", "normalised enrichment score": 0.338}
{"Variant": "A12R", "normalised enrichment score": 0.582}
{"Variant": "S8H", "normalised enrichment score": 0.349}
{"Variant": "F11P", "normalised enrichment score": -0.459}
{"Variant": "A3L", "normalised enrichment score": -0.0177}
{"Variant": "A3F", "normalised enrichment score": 0.473}
{"Variant": "S8Y", "normalised enrichment score": 0.673}
{"note": "Some of these lines once more (sample 2):"}
{"Sequence": "CACGACAC", "E-score": -0.0392}
{"Sequence": "ACAAATTG", "E-score": 0.168}
{"Sequence": "CTATTGCC", "E-score": 0.0291}
{"Sequence": "ATAACACC", "E-score": 0.233}
{"Sequence": "GCTCACGA", "E-score": -0.25}
{"Sequence": "CGCTTGTC", "E-score": -0.164}
{"Sequence": "GAGCCCAA", "E-score": -0.197}
{"Sequence": "CAGTCGTC", "E-score": -0.108}
{"Sequence": "GAATGGCA", "E-score": 0.00715}
